Published values gathered from unrelated publications.
Parts stem from different laboratories: compare values within a part only. Positions count from the first letter of the parent shown.

Set 1 — technique: protein-binding microarray; form: double-stranded DNA, one strand shown; matrix: in vitro; concentration: 250 nM; setting: 60-bp whole probe; together with: salmon DNA 0.4 mg/ml; reference: random background probes; direction: higher = stronger binding; all sequences stand within: GCCTAGCAC … GTCTTGATTCGCTTGACGCTGCTG
Target: Interferon regulatory factor 7, full length, phosphomimetic (IRF7, Homo sapiens, UniProt Q92985, residues 1-503, S101K/S471D/S472D/S475D/S476D/S477D/S483D/S484D/S487D)
Sequence of UniProt Q92985 (whole entry, unmodified, looked up): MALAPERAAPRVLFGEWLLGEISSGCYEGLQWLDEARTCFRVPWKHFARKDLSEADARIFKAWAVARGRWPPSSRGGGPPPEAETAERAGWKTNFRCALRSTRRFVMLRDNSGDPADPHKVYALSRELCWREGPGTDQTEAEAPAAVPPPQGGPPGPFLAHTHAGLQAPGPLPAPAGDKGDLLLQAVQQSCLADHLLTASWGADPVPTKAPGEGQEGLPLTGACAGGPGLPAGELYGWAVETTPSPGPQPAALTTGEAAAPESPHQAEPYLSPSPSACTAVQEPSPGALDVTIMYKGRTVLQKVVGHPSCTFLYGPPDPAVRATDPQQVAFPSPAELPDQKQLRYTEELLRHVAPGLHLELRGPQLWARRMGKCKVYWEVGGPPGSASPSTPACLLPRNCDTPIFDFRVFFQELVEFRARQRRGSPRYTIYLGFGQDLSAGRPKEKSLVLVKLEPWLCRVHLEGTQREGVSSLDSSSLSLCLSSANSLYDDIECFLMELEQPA
The log fluorescence of `GACGAACTGAGACTGGAGAGGTGCTAG` is reported as -0.321 z-score.
The log fluorescence of `GTGTATATGTGATTAAAATAGTGCTAG` is reported as 0.268 z-score.
For `CTCATTCTCTGCTTGCGTCTGTGCTAG`, the log fluorescence was 1.6 z-score.
For `GGAAGCAGTGAGAAGGTGGCGTGCTAG`, the log fluorescence was -0.638 z-score.
With `GACAGTTTCCTTTCCCTGACGTGCTAG` the log fluorescence was 4.91 z-score.
`TCAAAAATGAATATTAGACTGTGCTAG` has a log fluorescence of -0.169 z-score.
With `GACGATTTCGGGTTTTGAGACGTGCTA` the log fluorescence was 1.11 z-score.
`AAGAATCAGGGGTTTTATCCGTGCTAG` has a log fluorescence of -0.763 z-score.
With `TTAGGTATCGTTATCGGTTAGTGCTAG` the log fluorescence was 2.14 z-score.
The log fluorescence of `TTAGGACTGGGGACTAGGTTAGTGCTA` is reported as -0.294 z-score.
With `TTAGATTTCAGTTTCGATGAGTGCTAG` the log fluorescence was 3.18 z-score.
For `CAGCCAATCAGGACTCAGGGAGTGCTA`, the log fluorescence was -0.711 z-score.
For `TTAGCTTCCAGTTTCGATTAGTGCTAG`, the log fluorescence was 8.05 z-score.
`GACGGTATCGGTTTCGCGACGTGCTAG` has a log fluorescence of 5.3 z-score.
For `GACGATACCAGACTGGAGACGTGCTAG`, the log fluorescence was -0.254 z-score.

Set 2 — technique: aptamer microarray, sandwich; form: DNA with 2'F-ANA; matrix: in vitro; concentration: 200 nM; together with: Cy3 exosite-II aptamer, 400 nM; direction: higher = stronger binding; strand: GGTTGGTGTGGTTGG
Target: Prothrombin, mature alpha-thrombin (F2, Homo sapiens, UniProt P00734)
Setting: whole 15-mer aptamer, many near background
For `2'F-ANA at 1 2 5 6 7 10 11 14 15`, “mean fluorescence intensity” read 46.5 a.u.
`2'F-ANA at 1 5 10 11 12 14 15` — result for “mean fluorescence intensity”: 47.3 a.u.
For `2'F-ANA at 2 3 6 8 9 12 13 14 15`, “mean fluorescence intensity” read 339 a.u.
Under “mean fluorescence intensity”, `2'F-ANA at 2 3 5 6 8 9 12 13 15` is recorded as 147 a.u.
`2'F-ANA at 1 3 5 7 8 9 11 12` — result for “mean fluorescence intensity”: 158 a.u.
`2'F-ANA at 2 3 7 13 14 15`: “mean fluorescence intensity” 456 a.u.
`2'F-ANA at 2 3 6 7 8 9 11 12` — result for “mean fluorescence intensity”: 934 a.u.
`2'F-ANA at 1 5 8 11 12 15`: “mean fluorescence intensity” 97 a.u.
For `2'F-ANA at 1 2 3 5 6 7 8 9 13`, “mean fluorescence intensity” read 53.4 a.u.
`2'F-ANA at 4 5 6 7 12 13 14 15`: “mean fluorescence intensity” 47.5 a.u.
For `2'F-ANA at 2 5 7 11 13 14`, “mean fluorescence intensity” read 106 a.u.
Under “mean fluorescence intensity”, `2'F-ANA at 1 2 4 6 7 11 12 15` is recorded as 182 a.u.

Set 3 — technique: DHFR PCA, deep sequencing; matrix: yeast; together with: (+)-ABA 1.4 µM; reference: wild-type fitted maximum; direction: higher = stronger binding
Target: ABI1, truncated, D143A, DHFR fusion (Arabidopsis thaliana)
Setting: methotrexate growth selection, single substitutions
Starting sequence: PYL1, truncated, DHFR fusion (Arabidopsis thaliana); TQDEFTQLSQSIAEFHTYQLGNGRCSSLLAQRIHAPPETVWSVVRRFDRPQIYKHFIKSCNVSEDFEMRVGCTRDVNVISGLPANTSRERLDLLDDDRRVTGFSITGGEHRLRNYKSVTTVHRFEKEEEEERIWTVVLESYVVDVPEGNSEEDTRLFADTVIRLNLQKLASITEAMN; partner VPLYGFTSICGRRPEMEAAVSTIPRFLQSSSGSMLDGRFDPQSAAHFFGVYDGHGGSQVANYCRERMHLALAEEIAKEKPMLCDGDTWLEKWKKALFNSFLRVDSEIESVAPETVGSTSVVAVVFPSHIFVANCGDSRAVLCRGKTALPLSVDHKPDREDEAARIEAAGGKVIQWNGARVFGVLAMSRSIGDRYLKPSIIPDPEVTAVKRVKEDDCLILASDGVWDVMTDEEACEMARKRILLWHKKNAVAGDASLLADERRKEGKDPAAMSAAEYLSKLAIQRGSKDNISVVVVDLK
For `L112C`, “relative binding score” read -11.5%.
`N22Q` — result for “relative binding score”: 64.7%.
`F15C` — result for “relative binding score”: 16.2%.
For `E67A`, “relative binding score” read 38.3%.
Under “relative binding score”, `H16A` is recorded as 1.58%.
`D97L`: “relative binding score” 30.3%.
`R90M` — result for “relative binding score”: 8.61%.
Under “relative binding score”, `P50D` is recorded as -8.31%.
`D92E` — result for “relative binding score”: 27.5%.
Under “relative binding score”, `R88T` is recorded as 66.9%.
`I79M` — result for “relative binding score”: 20.8%.
For `S117R`, “relative binding score” read -11.9%.
`R163V` — result for “relative binding score”: 15.2%.
`R24E`: “relative binding score” 44%.
Under “relative binding score”, `E151P` is recorded as 55.6%.
Under “relative binding score”, `I12K` is recorded as -0.912%.
`N77P`: “relative binding score” -5.15%.
`R132I`: “relative binding score” 48.1%.

Set 4 — technique: RNAcompete; form: RNA; matrix: in vitro; concentration: 20 nM; setting: 7-mer, probes averaged, single round; reference: mean of 7-mers; direction: higher = stronger binding
Target: PABPC1L2, full length, GST fusion (mouse, UniProt A0ABA7IW68)
Construct (chain): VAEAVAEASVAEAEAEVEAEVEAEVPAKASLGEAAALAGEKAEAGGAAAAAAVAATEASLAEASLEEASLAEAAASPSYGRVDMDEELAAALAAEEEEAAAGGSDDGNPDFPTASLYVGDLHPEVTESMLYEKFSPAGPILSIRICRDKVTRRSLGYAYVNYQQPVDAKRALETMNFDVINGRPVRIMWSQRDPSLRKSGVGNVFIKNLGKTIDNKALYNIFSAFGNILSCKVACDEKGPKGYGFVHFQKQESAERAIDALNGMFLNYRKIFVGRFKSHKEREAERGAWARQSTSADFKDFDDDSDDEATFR
`AAUUAAU` gave a 7-mer Z-score of 0.137.
For `AUGUAGA`, the 7-mer Z-score was -0.0391.
`CACCCAU` gave a 7-mer Z-score of -0.324.
For `CACAAAA`, the 7-mer Z-score was 5.2.
With `CAUUCUA` the 7-mer Z-score was -0.383.
`GGUAUAG` has a 7-mer Z-score of -0.0518.
`CUCACGC` gave a 7-mer Z-score of -0.325.
`GAAGUAU` has a 7-mer Z-score of -0.148.
`UAGAACC` has a 7-mer Z-score of -0.18.
For `UUGCGAC`, the 7-mer Z-score was -0.106.
`AAUUCAG` has a 7-mer Z-score of 0.305.

A few entries again (set 1):
With `GACGATTTCGGGTTTTGAGACGTGCTA` the log fluorescence was 1.11 z-score.
`AAGAATCAGGGGTTTTATCCGTGCTAG` has a log fluorescence of -0.763 z-score.
With `TTAGGTATCGTTATCGGTTAGTGCTAG` the log fluorescence was 2.14 z-score.
The log fluorescence of `TTAGGACTGGGGACTAGGTTAGTGCTA` is reported as -0.294 z-score.
With `TTAGATTTCAGTTTCGATGAGTGCTAG` the log fluorescence was 3.18 z-score.
For `CAGCCAATCAGGACTCAGGGAGTGCTA`, the log fluorescence was -0.711 z-score.
